# Literature values as cited in several papers.
# Lines come from different studies, so protocols differ.
# Chain of UniProt P25084 (whole entry, looked up): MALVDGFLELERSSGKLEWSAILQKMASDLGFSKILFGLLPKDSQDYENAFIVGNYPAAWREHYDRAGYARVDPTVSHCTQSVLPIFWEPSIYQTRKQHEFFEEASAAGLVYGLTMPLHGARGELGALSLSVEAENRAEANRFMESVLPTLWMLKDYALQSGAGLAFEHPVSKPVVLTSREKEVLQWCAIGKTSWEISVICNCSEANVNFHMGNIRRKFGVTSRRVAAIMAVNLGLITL
Structure (SMILES),tested on,test,system,setting,quantity,value
CCn1c(C)c(CC(=O)N[C@@H](Cc2ccccc2)C(=O)N(C)c2ccccc2)c2ccccc21,HIV-1 capsid hexamer wild type,,,,ΔTm,10.8 °C
CCC(=O)OC1C(=O)C2(C)C(O)CC3OCC3(OC(C)=O)C2C(OC(=O)c2cccc(OC(F)(F)F)c2)C2(O)CC(OC(=O)C(O)C(C=C(C)C)NC(=O)OC(C)(C)C)C(C)=C1C2(C)C (stereo not shown),HCT-116,cytotoxicity,,,IC50,0.00168 µM
CC(C)[C@H](NC(=O)[C@H](Cc1ccc(O)cc1)NC(=O)[C@H](CS)NC(=O)[C@@H](NC(=O)[C@H](CCCNC(=N)N)NC(=O)[C@H](Cc1ccccc1)NC(=O)[C@H](CS)NC(=O)[C@H](Cc1c[nH]c2ccccc12)NC(=O)[C@@H](N)CCCNC(=N)N)C(C)C)C(=O)NCC(=O)N[C@@H](Cc1ccccc1)C(=O)N[C@@H](CS)C(=O)N[C@@H](Cc1ccc(O)cc1)C(=O)N[C@@H](Cc1c[nH]c2ccccc12)C(=O)N[C@@H](CCCCN)C(=O)N[C@@H](CS)C(=O)N[C@@H](CCCNC(=N)N)C(=O)O,Pseudomonas aeruginosa,,,,MIC,8 µM
COc1ccc2nnn(CC(=O)N(Cc3ccccn3)c3ccc(C4CCNCC4)cc3)c2c1,main protease (Mpro),,,50 µM,inhibition,94.8%
NC[C@]1(CC(=O)O)CC[C@H]([18F])CC1,α2δ-1,radioligand binding,,,IC50,2.4 µM
COc1cc(NC(=O)CN2CN=C(c3ccccc3)C(c3ccccc3)=N2)cc(OC)c1,amyloid beta,"aggregation, inhibitor",,10 µM,inhibition,31.2%
CC(=O)OC1C(=O)C2(C)C(O)CC3OCC3(OC(C)=O)C2C(OC(=O)c2cccc(OC(F)(F)F)c2)C2(O)CC(OC(=O)C(O)C(C=C(C)C)NC(=O)OC(C)(C)C)C(C)=C1C2(C)C (stereo not shown),HCT-116,cytotoxicity,,,IC50,0.0018 µM
CC[C@H](C)[C@H](NC(=O)[C@@H]1CCCN1C(=O)[C@H](CS)NC(=O)[C@H](Cc1ccc(O)cc1)NC(=O)[C@@H]1CCCN1C(=O)[C@H](CC(C)C)NC(=O)[C@H](CCCNC(=N)N)NC(=O)[C@H](CO)NC(=O)[C@H](Cc1ccc(O)cc1)NC(=O)[C@H](Cc1ccccc1)NC(=O)[C@H](CC(N)=O)NC(=O)[C@H](CCCNC(=N)N)NC(=O)[C@H](CS)NC(=O)[C@H](Cc1ccc(O)cc1)NC(=O)[C@H](CO)NC(=O)CNC(=O)[C@H](CO)NC(=O)[C@@H]1CCCN1C(=O)[C@H](CC(C)C)NC(=O)[C@H](Cc1ccc(O)cc1)NC(=O)[C@H](C)NC(=O)[C@@H]1CCCN1C(=O)[C@H](CCCNC(=N)N)NC(=O)CN)C(=O)N[C@@H](CCCNC(=N)N)C(=O)NCC(=O)NCC(=O)N[C@@H](Cc1c[nH]cn1)C(=O)N[C@@H](CS)C(=O)N[C@@H](CCCNC(=N)N)C(=O)O,Escherichia coli,,,,MIC,8 µM
O=C(Nc1ccccc1NC(=O)c1cccc(Cl)c1)c1cccc(Cl)c1,"lasR (Pseudomonas aeruginosa, UniProt P25084)","rsaL-yfp reporter, inhibitor",PAO-MW1,,maximal inhibition,90%
CC[C@H](C)[C@H](NC(=O)[C@H](CCCNC(=N)N)NC(=O)[C@@H](NC(=O)[C@@H]1CCCN1C(=O)[C@H](CCCNC(=N)N)NC(=O)[C@@H](NC(=O)[C@@H]1CCCN1C(=O)[C@H](CC(C)C)NC(=O)[C@H](CC(C)C)NC(=O)CNC(=O)[C@H](Cc1c[nH]cn1)NC(=O)[C@@H]1CCCN1C(=O)CNC(=O)[C@H](Cc1ccccc1)NC(=O)[C@H](CC(=O)O)NC(=O)[C@H](Cc1c[nH]c2ccccc12)NC(=O)[C@H](C)NC(=O)[C@@H](NC(=O)[C@H](C)N)[C@@H](C)O)[C@@H](C)CC)[C@@H](C)CC)C(=O)N[C@@H](CCCNC(=N)N)C(=O)N1CCC[C@H]1C(=O)N[C@@H](CC(C)C)C(=O)N[C@@H](CS)C(=O)NCC(=O)N[C@@H](CCCCN)C(=O)N[C@@H](CC(=O)O)C(=O)O,Staphylococcus aureus,,,,MIC,> 128 µM
CS(=O)(=O)c1ccc(N2CCNCC2)cc1,main protease (Mpro),,,50 µM,inhibition,5.05%
CC(C)[C@H](NC(=O)CNC(=O)CNC(=O)[C@H](Cc1ccc(O)cc1)NC(=O)[C@H](CS)NC(=O)[C@@H](NC(=O)[C@H](Cc1c[nH]c2ccccc12)NC(=O)[C@H](Cc1ccccc1)NC(=O)[C@H](CS)NC(=O)[C@H](Cc1c[nH]c2ccccc12)NC(=O)[C@@H](N)CCCNC(=N)N)C(C)C)C(=O)N[C@@H](CS)C(=O)N[C@@H](Cc1ccc(O)cc1)C(=O)N[C@@H](CCCNC(=N)N)C(=O)N[C@@H](CCCNC(=N)N)C(=O)N[C@@H](CS)C(=O)N[C@@H](CCCNC(=N)N)C(=O)O,Pseudomonas aeruginosa,,,,MIC,64 µM
CCCCCCC#Cc1cncc(-c2nnc(SCc3ccc([N+](=O)[O-])cc3)n2C)c1,Mycobacterium tuberculosis,MABA,Erdman wild type,,IC50,5.9 µM
CCN(CC)C(=O)[C@@H]1C=C2c3cccc4[nH]cc(c34)C[C@H]2N(C)C1,,head-twitch response,male C57BL/6J mouse,,ED50,133 nmol/kg
CCCCCCCCCCCCCC/C=C/[C@H](CO)NC(=O)C(C)(C)C,acid ceramidase,fluorogenic,acid ceramidase-overexpressing cells,,IC50,~15 µM
Nc1nc2sc(CCCCc3ccc(C(=O)N[C@@H](CCC(=O)O)C(=O)O)cc3)cc2c(=O)[nH]1,CHO RT16 (human FRα),cell growth,,no added folic acid,IC50,0.009 µM

# Some of these lines once more:
Structure (SMILES),tested on,test,system,setting,quantity,value
CS(=O)(=O)c1ccc(N2CCNCC2)cc1,main protease (Mpro),,,50 µM,inhibition,5.05%
CC(C)[C@H](NC(=O)CNC(=O)CNC(=O)[C@H](Cc1ccc(O)cc1)NC(=O)[C@H](CS)NC(=O)[C@@H](NC(=O)[C@H](Cc1c[nH]c2ccccc12)NC(=O)[C@H](Cc1ccccc1)NC(=O)[C@H](CS)NC(=O)[C@H](Cc1c[nH]c2ccccc12)NC(=O)[C@@H](N)CCCNC(=N)N)C(C)C)C(=O)N[C@@H](CS)C(=O)N[C@@H](Cc1ccc(O)cc1)C(=O)N[C@@H](CCCNC(=N)N)C(=O)N[C@@H](CCCNC(=N)N)C(=O)N[C@@H](CS)C(=O)N[C@@H](CCCNC(=N)N)C(=O)O,Pseudomonas aeruginosa,,,,MIC,64 µM
CCCCCCC#Cc1cncc(-c2nnc(SCc3ccc([N+](=O)[O-])cc3)n2C)c1,Mycobacterium tuberculosis,MABA,Erdman wild type,,IC50,5.9 µM
